Measured values collected from several papers.
Protocols differ between the studies behind these lines. Numbers after ± are the reported error.
USP3 ZnF-UBD domain: Ubiquitin carboxyl-terminal hydrolase 3, ZnF-UBD domain (USP3, Homo sapiens, UniProt Q9Y6I4)
Chain of UniProt Q9Y6I4 (whole entry, looked up): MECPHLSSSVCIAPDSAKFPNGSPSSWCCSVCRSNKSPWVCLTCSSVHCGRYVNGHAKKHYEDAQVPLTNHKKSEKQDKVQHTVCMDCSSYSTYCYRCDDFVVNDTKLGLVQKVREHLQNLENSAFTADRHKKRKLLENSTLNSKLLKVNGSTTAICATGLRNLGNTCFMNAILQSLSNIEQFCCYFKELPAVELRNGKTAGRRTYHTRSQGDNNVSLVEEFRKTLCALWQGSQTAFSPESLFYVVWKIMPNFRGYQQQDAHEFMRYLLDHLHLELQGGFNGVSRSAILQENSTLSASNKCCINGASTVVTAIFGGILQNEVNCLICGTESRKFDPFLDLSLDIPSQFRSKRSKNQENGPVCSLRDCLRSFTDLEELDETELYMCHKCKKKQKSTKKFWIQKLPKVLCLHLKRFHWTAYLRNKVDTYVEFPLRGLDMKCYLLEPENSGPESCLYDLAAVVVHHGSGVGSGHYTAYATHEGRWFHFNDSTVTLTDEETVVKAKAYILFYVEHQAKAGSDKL
Chain of UniProt P03146 (whole entry, looked up): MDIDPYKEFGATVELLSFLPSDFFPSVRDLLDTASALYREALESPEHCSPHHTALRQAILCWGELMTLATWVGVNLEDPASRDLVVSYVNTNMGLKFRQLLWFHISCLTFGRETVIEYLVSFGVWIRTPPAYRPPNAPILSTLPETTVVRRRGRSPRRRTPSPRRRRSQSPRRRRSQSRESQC
Chain of UniProt Q9FKW4 (whole entry, looked up): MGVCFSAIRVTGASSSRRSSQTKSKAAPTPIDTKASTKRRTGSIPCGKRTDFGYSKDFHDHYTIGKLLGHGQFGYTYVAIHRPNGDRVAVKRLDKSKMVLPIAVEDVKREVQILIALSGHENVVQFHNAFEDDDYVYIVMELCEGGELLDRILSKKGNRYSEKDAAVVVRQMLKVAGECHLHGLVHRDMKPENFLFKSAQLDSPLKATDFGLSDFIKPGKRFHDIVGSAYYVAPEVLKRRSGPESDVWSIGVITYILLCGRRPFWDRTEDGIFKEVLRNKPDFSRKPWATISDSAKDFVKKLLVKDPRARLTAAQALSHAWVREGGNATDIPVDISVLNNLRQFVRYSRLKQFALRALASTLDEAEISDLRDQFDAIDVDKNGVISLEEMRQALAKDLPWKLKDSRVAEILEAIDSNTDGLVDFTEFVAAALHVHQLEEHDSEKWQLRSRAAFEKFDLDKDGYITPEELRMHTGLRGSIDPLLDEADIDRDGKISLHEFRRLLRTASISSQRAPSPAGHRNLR
Chain of UniProt Q6PL18 (whole entry, looked up): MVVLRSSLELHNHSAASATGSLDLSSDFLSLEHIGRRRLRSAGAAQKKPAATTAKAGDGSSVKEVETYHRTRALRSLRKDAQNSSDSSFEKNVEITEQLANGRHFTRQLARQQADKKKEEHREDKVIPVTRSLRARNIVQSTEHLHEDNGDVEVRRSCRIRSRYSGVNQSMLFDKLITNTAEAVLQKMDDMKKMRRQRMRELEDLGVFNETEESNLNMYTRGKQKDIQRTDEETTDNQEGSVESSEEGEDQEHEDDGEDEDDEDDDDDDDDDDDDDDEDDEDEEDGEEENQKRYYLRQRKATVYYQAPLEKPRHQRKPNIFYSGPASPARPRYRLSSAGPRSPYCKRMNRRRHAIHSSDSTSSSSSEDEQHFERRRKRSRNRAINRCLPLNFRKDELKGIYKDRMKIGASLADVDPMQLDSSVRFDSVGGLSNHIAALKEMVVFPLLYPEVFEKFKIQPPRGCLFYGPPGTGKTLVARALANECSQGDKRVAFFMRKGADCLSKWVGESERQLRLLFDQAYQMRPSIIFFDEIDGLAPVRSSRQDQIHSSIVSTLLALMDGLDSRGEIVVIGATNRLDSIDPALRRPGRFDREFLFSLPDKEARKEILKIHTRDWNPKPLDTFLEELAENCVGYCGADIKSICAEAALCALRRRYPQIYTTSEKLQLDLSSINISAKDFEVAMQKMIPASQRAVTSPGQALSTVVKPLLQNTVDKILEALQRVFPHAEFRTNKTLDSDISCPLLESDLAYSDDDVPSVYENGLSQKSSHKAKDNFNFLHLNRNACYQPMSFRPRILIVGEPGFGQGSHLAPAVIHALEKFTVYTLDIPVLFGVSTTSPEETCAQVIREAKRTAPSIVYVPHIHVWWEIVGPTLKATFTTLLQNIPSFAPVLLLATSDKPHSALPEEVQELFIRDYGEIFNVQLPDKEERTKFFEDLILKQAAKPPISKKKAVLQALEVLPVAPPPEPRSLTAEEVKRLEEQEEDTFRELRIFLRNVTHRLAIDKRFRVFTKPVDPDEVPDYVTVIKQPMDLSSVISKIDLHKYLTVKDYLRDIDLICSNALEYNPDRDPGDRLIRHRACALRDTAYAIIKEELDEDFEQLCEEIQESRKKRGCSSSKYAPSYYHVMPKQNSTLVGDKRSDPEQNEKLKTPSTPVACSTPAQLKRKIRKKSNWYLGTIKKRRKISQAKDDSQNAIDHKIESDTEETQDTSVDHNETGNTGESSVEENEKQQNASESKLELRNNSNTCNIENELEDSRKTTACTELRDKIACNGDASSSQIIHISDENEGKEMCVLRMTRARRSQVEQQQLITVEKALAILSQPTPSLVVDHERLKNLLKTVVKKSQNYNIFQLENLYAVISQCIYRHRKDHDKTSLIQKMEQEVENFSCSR
Chain of UniProt Q9UBZ9 (whole entry, looked up): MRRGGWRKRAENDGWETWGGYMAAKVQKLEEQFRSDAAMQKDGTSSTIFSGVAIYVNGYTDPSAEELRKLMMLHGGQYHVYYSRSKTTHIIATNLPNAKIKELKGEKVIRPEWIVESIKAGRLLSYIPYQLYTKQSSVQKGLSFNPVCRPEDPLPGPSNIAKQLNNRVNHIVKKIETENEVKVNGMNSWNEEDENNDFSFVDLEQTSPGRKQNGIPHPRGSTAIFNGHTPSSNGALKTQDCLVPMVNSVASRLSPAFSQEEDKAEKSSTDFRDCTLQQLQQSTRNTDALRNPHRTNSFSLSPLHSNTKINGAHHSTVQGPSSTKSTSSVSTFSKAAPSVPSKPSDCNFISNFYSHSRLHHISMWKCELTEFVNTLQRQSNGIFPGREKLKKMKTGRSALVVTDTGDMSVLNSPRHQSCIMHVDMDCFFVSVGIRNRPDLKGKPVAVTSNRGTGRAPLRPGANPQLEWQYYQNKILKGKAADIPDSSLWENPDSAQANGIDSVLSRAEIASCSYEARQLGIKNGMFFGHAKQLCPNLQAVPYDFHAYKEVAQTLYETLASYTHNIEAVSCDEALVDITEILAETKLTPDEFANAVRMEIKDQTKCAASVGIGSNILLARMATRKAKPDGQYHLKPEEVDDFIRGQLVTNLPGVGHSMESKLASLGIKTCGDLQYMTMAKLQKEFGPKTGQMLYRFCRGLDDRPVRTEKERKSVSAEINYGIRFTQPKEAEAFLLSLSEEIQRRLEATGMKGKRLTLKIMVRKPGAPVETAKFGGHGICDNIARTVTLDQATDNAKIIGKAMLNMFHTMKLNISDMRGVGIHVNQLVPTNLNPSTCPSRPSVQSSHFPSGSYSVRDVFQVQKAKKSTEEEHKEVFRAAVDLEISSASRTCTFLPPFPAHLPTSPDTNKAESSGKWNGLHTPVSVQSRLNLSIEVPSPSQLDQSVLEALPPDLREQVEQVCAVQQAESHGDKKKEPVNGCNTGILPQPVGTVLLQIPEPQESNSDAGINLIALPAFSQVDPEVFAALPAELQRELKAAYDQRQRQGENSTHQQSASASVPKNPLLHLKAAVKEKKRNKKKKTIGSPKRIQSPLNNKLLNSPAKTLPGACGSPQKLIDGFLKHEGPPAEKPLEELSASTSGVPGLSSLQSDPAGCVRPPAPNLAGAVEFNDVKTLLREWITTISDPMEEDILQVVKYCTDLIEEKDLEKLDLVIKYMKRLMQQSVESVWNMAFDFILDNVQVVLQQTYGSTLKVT
Chain of UniProt A3M2I8 (whole entry, looked up): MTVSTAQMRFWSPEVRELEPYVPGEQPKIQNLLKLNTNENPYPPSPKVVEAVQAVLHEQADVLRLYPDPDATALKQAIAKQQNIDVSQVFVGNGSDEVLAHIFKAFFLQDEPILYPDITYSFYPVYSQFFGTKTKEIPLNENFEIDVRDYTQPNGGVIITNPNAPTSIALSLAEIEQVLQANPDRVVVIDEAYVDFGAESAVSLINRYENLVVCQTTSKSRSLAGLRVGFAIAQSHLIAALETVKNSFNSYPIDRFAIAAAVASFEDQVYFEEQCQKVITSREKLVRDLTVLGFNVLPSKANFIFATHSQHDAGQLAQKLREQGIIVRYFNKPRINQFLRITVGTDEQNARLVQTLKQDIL
Chain of UniProt P23204 (whole entry, unmodified, looked up): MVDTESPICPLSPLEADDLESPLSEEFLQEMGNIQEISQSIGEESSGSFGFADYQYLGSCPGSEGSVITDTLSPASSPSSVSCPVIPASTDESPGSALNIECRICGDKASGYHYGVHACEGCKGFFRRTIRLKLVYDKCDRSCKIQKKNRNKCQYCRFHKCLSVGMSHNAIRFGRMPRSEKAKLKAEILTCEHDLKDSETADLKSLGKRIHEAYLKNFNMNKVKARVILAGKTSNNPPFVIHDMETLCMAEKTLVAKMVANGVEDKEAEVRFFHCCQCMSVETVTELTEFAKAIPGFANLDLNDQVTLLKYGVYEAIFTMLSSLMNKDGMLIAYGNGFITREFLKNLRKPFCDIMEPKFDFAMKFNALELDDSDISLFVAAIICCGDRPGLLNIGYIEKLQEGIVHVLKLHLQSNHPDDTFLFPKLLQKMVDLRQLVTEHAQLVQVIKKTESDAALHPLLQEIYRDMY
Chain of UniProt P46108 (whole entry, looked up): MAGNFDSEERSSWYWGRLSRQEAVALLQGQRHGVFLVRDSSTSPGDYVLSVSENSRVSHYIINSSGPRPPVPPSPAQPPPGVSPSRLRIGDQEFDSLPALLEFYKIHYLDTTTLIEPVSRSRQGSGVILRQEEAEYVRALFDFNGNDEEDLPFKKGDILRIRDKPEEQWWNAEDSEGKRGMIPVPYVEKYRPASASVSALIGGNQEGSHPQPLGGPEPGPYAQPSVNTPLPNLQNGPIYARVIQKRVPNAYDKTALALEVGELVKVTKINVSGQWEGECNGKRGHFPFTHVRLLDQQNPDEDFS

| Compound | tested on | assay | system | conditions | scale | endpoint | value |
| --- | --- | --- | --- | --- | --- | --- | --- |
| O=C(O)CCC(=O)c1ccc2c(c1)CCC(=O)N2 | USP3 ZnF-UBD domain | – | – | – | – | Kd | 140 µM |
| C[C@H](N)C(=O)N[C@@H](CCCCNC(=O)CCCCC(=O)NCCCC[C@H](NC(=O)[C@H](C)N)C(=O)N1CCC[C@H]1C(=O)N[C@@H](Cc1ccccc1)C(=O)N[C@H](CCCCNC(=O)c1ccc2c(c1)C(=O)OC21c2ccc(O)cc2Oc2cc(O)ccc21)C(N)=O)C(=O)N1CCC[C@H]1C(=O)N[C@@H](Cc1ccccc1)C(N)=O | E3 ubiquitin-protein ligase XIAP, BIR3 domain (XIAP, Homo sapiens, UniProt P98170) | binding, fluorescence polarisation | – | added: tracer 2 nM | – | Kd | 0.0044 ± 0.0007 µM |
| Cn1cncc1C1=CN(c2ncnc3[nH]cnc23)CC[S+]1[O-] (centres unmarked) | PRKACA (Homo sapiens, UniProt P17612) | binding | – | – | – | Kd | 317 ± 283 µM |
| O=C(Nc1ccc(C2CCCCC2)cc1)c1cn[nH]c1 | – | – | dog liver microsomes | 1 µM | – | hepatic clearance | 20 mL/min/kg |
| CCCCCCCCCCCC1=C(O)C(=O)C=C(O)C1=O | de novo protein S23 | NMR | – | – | – | Kd | ~1000 µM |
| CC(C)=CCC/C(C)=C/C=C/C(C)=C/C=C/C(C)=C/C=C/C=C(C)/C=C/C=C(C)/C=C/C=C(\C)CCC=C(C)C | Beta-lactoglobulin (LGB, Bos taurus, UniProt P02754) | binding, fluorescence quenching | PBS | 30 min, 308 K | – | Kd | 21.4 µM |
| O=C(O)CCC1=Nc2cccc3cccc(c23)N1 | USP3 ZnF-UBD domain | – | – | – | – | Kd | > 1000 µM |
| Nc1nc2c(ncn2[C@@H]2O[C@H](COP(=O)(O)OP(=O)(O)O)[C@@H](OP(=O)(O)OP(=O)(O)O)[C@H]2O)c(=O)[nH]1 | speC (Escherichia coli, UniProt P21169) | isothermal titration calorimetry | – | – | – | Kd | 2.3 µM |
| NC[C@@H]1O[C@H](O[C@H]2[C@@H](O)[C@H](O[C@@H]3[C@@H](O)[C@H](N)C[C@H](N)[C@H]3O[C@H]3O[C@H](CO)[C@@H](O)[C@H](O)[C@H]3N)O[C@@H]2CO)[C@H](N)[C@@H](O)[C@@H]1O | de novo protein S23 | SPR | – | – | – | Kd | 10 ± 1 µM |
| O=C(O)Cc1cccnc1 | USP3 ZnF-UBD domain | – | – | – | – | Kd | 121 µM |
| O=c1c(O)c(-c2ccc(O)cc2O)oc2cc(O)cc(O)c12 | Histidinol-phosphate aminotransferase (hisC, Acinetobacter baumannii, UniProt A3M2I8) | surface plasmon resonance | – | – | – | Kd | 6.7 µM |
| NC1CCN(S(=O)(=O)c2cc(C(=O)Nc3cc(F)c(F)c(F)c3)ccc2F)CC1 | Capsid protein (C, Hepatitis B virus genotype D subtype ayw, UniProt P03146) | surface plasmon resonance | – | 25 °C | – | Kd | 708 µM |
| COc1cc(Cl)c(C(=O)N[C@@H](CN[C@H]2CC[C@@H](N)CC2)Cc2ccc(C#N)cc2)cc1-c1ccc(CN[C@H](C)c2ccc(C)cc2)o1 | ATPase family AAA domain-containing protein 2, bromodomain (ATAD2, Homo sapiens, UniProt Q6PL18) | isothermal titration calorimetry | – | 37 °C, His-tagged protein | – | Kd | 0.753 µM |
| O=C(O)CN1Cc2ccccc2C1=O | USP3 ZnF-UBD domain | – | – | – | – | Kd | 758 µM |
| OC1OC[C@H](O)[C@H](O)[C@H]1O (mixture of isomers) | uncharacterized protein (Pelagibacter ubique, UniProt Q4FMK2) | isothermal titration calorimetry | Candidatus Pelagibacter ubique | one-set-of-sites model | – | Kd | 1.31 ± 0.09 µM |
| NC(=O)c1cc(-n2c(CCC(=O)O)nc3ccccc32)cs1 | USP3 ZnF-UBD domain | – | – | – | – | Kd | > 1000 µM |
| CN(C)C(=N)N=C(N)N | Calcium-dependent protein kinase 28 (CPK28, Arabidopsis thaliana, UniProt Q9FKW4) | biochemical | – | – | – | Kd | 98.8 µM |
| CC(C)C[C@H](NC(=O)[C@H](CC(C)C)NC(=O)[C@H](CC(C)C)NC(=O)[C@H](CO)NC(=O)[C@H](CCCCN)NC(=O)[C@H](CCC(N)=O)NC(=O)[C@H](CCCCN)NC(=O)[C@H](Cc1ccccc1)NC(=O)[C@H](Cc1ccccc1)NC(=O)[C@@H]1CCCN1C(=O)[C@H](CCC(=O)O)NC(=O)[C@@H](NC(=O)CNC(=O)[C@@H](NC(=O)[C@H](CO)NC(=O)[C@@H](N)CCC(N)=O)[C@@H](C)O)[C@@H](C)O)C(=O)O | DNA repair protein REV1, C-terminal domain (Homo sapiens, UniProt Q9UBZ9) | binding, tryptophan fluorescence quenching | – | – | – | Kd | 4.4 µM |
| NS(=O)(=O)c1ccc(NCC(=O)O)cc1 | USP3 ZnF-UBD domain | – | – | – | – | Kd | 620 µM |
| CN(C)c1ccc(/C=C\c2nc3ccc(OCCOCCOCCCF)cc3s2)cc1 | Amyloid-beta precursor protein, Aβ42 aggregates (APP, Homo sapiens, UniProt P05067) | binding, fluorescence saturation binding | preformed amyloid-beta aggregates in PBS | – | – | Kd | 0.111 ± 0.024 µM |
| Cc1cc(C)n2c1C=C1C=CC(CCCCCCCCCCCCCCCC(=O)O)=[N+]1[B-]2(F)F | Ppara (Mus musculus, UniProt P23204, F272I) | binding, BODIPY fluorescent ligand titration | – | – | – | Kd | 0.018 ± 0.003 µM |
| Cc1ncsc1-c1ccc(CNC(=O)[C@@H]2C[C@H](O)CN2C(=O)[C@@H](NC(=O)C2(F)CC2)C(C)(C)C)c(OCCc2ccc(CN3CCN(c4cc(-c5ccccc5O)nnc4N)CC3)cc2)c1 | SWI/SNF-related matrix-associated actin-dependent regulator of chromatin subfamily A member 4, bromodomain (SMARCA4, Homo sapiens, UniProt P51532) | binding, SPR | – | 6 °C | – | Kd | 1.2 µM |
| O=C(O)CNc1ccc2nncn2n1 | USP3 ZnF-UBD domain | – | – | – | – | Kd | > 1000 µM |
| C#Cc1c(F)ccc2cc(O)cc(-c3ncc4c(N5CC6CCC(C5)N6)nc(OC[C@@]56CCCN5C[C@H](F)C6)nc4c3F)c12 | GTPase HRas, GDP-bound (HRAS, Homo sapiens, UniProt P01112) | binding, SPR | – | steady state | – | Kd | 3.43 ± 0.73 µM |
| CC[C@H](C)[C@H](NC(=O)[C@H](CC(C)C)NC(=O)[C@H](Cc1ccc(OP(=O)(O)O)cc1)NC(=O)[C@H](CCC(=O)O)NC(=O)[C@H](CC(=O)O)NC(=O)[C@H](C)NC(=O)[C@H](CC(=O)O)NC(=O)[C@@H](NC(=O)[C@@H](NC(=O)[C@H](CC(=O)O)NC(=O)[C@H](CC(=O)O)NC(=O)[C@H](CCSC)NC(=O)c1ccc2c(c1)C(=O)OC21c2ccc(N(C)C)cc2Oc2cc(N(C)C)ccc21)C(C)C)C(C)C)C(=O)N1CCC[C@H]1C(=O)N[C@@H](CCC(N)=O)C(=O)N[C@@H](CCC(N)=O)C(=O)NCC(=O)N[C@@H](Cc1ccccc1)C(=O)N[C@@H](CC(=O)O)C(=O)O | Adapter molecule crk, SH2 domain (Homo sapiens, UniProt P46108) | binding | – | – | – | Kd | 0.47 µM |
| CC(=O)N1CC(C(=O)Nc2ccc([C@H]3[C@@H](F)[C@@H](F)C[C@@H](F)[C@H]3F)cc2)C1 | – | hepatocyte stability | cryopreserved mouse hepatocytes | 1 µM | – | hepatic clearance | 21 mL/min/kg |
| Cn1cc(-c2ccc(-c3cncc(Cl)c3N3CCC4(CCNC4=O)CC3)cc2)cn1 | COLO 205 | gene expression, microarray, item: SLPI mRNA | – | concentration not given, 6 h | baseline: untreated cells | log2 fold change | 4.97 |
| COc1ccc(C=C2SC(=O)N(C(C)C(=O)O)C2=O)cc1 (centres unmarked) | USP3 ZnF-UBD domain | – | – | – | – | Kd | 441 µM |
| Cc1cc2nc3c(=O)[nH]c(=O)nc-3n(C[C@H](O)[C@H](O)[C@H](O)COP(=O)(O)OP(=O)(O)OC[C@H]3O[C@@H](n4cnc5c(N)ncnc54)[C@H](O)[C@@H]3O)c2cc1C | YLP motif-containing protein 1 (YLPM1, Homo sapiens, UniProt P49750) | binding, MS pulldown competition | SW-620 cell lysate | – | – | Kd | 0.08 µM |

Repeated from above:
| Compound | tested on | assay | system | conditions | scale | endpoint | value |
| --- | --- | --- | --- | --- | --- | --- | --- |
| NS(=O)(=O)c1ccc(NCC(=O)O)cc1 | USP3 ZnF-UBD domain | – | – | – | – | Kd | 620 µM |
| O=c1c(O)c(-c2ccc(O)cc2O)oc2cc(O)cc(O)c12 | Histidinol-phosphate aminotransferase (hisC, Acinetobacter baumannii, UniProt A3M2I8) | surface plasmon resonance | – | – | – | Kd | 6.7 µM |
